Measurements of several laboratories.
Lines come from different studies, so protocols differ. Values joined by “and” are separate records of one study, mostly repeats; a detail may differ.
HCK: Tyrosine-protein kinase HCK (HCK, Homo sapiens, UniProt P08631)

| Structure (SMILES) | target | test | setting | how to read | measurement | value |
| --- | --- | --- | --- | --- | --- | --- |
| Cc1cccc(O[C@H]2CCC[C@@H](C(C)CNCc3ccncc3)C2)c1 (relative stereo) | HCK | cell-free assay | 10 µM | – | inhibition | -3% |
| Nc1ncnc2c1c(-c1ccc(Oc3ccccc3)cc1)nn2C1CCCC1 | HCK (Homo sapiens, UniProt P08631, Y522F) | SH3 domain accessibility, polyproline peptide pull-down | 5 µM | – | kinase retained | 0% |
| C=CC(=O)N1CCCC(n2c(=O)c3ncccc3n(Cc3ccc(Oc4ccccc4)cc3)c2=O)C1 (stereo not shown) | HCK | cell-free assay, competition with immobilised ligand | 1 µM | – | remaining binding | 99% |
| O=C=[N][Ru-4]123([n]4c5ccc(O)cc5c5c6c(c7cc(F)c[n+]1c7c54)C(=O)NC6=O)[S+]1CC[S+]2CC[S+]3CC1 (stereo not shown) | HCK | enzyme activity | 100 nM, human enzyme, together with: 10 µM ATP | baseline: untreated | remaining activity | 50% |
| CCN1CCN(Cc2ccc(C(=O)Nc3ccc(C)c(NCc4cnc5[nH]ccc5c4OC)c3)cc2C(F)(F)F)CC1 | HCK | binding, competition with immobilised ligand | 1 µM | – | remaining binding | 0.45% |
| NC(=O)C[C@H]1CCc2sc3ncnc(O[C@H]4CC[C@H](N5CCOCC5)CC4)c3c21 | HCK | enzyme activity, inhibitor | 10 µM | – | inhibition | 7% |
| Cc1cnc2nc1Nc1cccc(c1)COC/C=C/COCc1cc(ccc1OCCN1CCOCC1)N2 | HCK | binding | 0.1 µM | – | remaining binding | 73% |
| CCn1cc(C(=O)O)c(=O)c2c(N)c(F)c(NC3CCCCC3)cc21 | HCK | kinase activity | 0.1 µM, together with: ATP at Km | – | inhibition | 0.2% |
| C=CC(=O)Nc1cccc(-c2cnc3[nH]cc(C(=O)NC(C)(C)C)c3n2)c1 | HCK | kinase activity | 0.1 µM | – | inhibition | 13% and 7% |
| C=CC(=O)N1CCc2ccc(-n3c(=O)ccc4cnc5ccc(-c6cnn(C)c6)cc5c43)cc21 | HCK | KINOMEscan | 1 µM | baseline: DMSO control | remaining binding | 100% |
| CNC(=O)C[C@H](Cc1ccc(C#N)cc1)NC(=O)c1cc(-c2ccc(CN[C@H](C)c3ccc(C)cc3)o2)ccc1Cl | HCK | enzyme activity, inhibitor | 1 µM | – | activity vs control | 100% |
| CN1CCN(Cc2ccc(-c3ccc(CO[C@H]4CCC[C@@H]4NC(=O)c4cc(-c5cnn(C)c5)cnc4N)cc3)cc2)CC1 | HCK | enzyme activity, inhibitor | 0.1 µM | – | inhibition | 7% |
| COCC12C(=O)NC3C4(C(OC)CC1O)C1CC5(O)C(OC)C(O)C(OC(C)=O)(C1C5OC(=O)c1ccccc1)C3(O)C(OC)C24 (stereo not shown) | HCK | kinase activity, inhibitor, ProQinase kinase profiling | 25 µM | baseline: control | remaining activity | 113% and 101% |
| CCN1CCN(Cc2ccc(NC(=O)c3ccc(C)c(NC(=O)c4cncc(-c5cccs5)c4)c3)cc2C(F)(F)F)CC1 | HCK | binding, competition with immobilised ligand | 1 µM | – | remaining binding | 0.1% |
| C[C@H]1CN(C(=O)c2cn(-c3ccnc(N)n3)c3cc(C#CC4(O)CCCCC4)ccc23)CCN1 | HCK | enzyme activity, inhibitor, FRET | 1 µM | – | inhibition | 9% |
| COc1ccc(NC(=O)Nc2ccc3c(c2)C(=O)N(C(C)CO)CC(C)C(CN(C)Cc2ccc4c(c2)OCO4)O3)cc1 (stereo not shown) | HCK | – | 0.03 µM | baseline: control | remaining activity | 100% |

Repeated from above:
| Structure (SMILES) | target | test | setting | how to read | measurement | value |
| --- | --- | --- | --- | --- | --- | --- |
| CCN1CCN(Cc2ccc(NC(=O)c3ccc(C)c(NC(=O)c4cncc(-c5cccs5)c4)c3)cc2C(F)(F)F)CC1 | HCK | binding, competition with immobilised ligand | 1 µM | – | remaining binding | 0.1% |
| C[C@H]1CN(C(=O)c2cn(-c3ccnc(N)n3)c3cc(C#CC4(O)CCCCC4)ccc23)CCN1 | HCK | enzyme activity, inhibitor, FRET | 1 µM | – | inhibition | 9% |
